Literature values that unrelated publications cite.
± marks the error that the study gave.
CA12: Carbonic anhydrase 12 (CA12, Homo sapiens, UniProt O43570)
Chain of UniProt O43570 (whole entry, looked up): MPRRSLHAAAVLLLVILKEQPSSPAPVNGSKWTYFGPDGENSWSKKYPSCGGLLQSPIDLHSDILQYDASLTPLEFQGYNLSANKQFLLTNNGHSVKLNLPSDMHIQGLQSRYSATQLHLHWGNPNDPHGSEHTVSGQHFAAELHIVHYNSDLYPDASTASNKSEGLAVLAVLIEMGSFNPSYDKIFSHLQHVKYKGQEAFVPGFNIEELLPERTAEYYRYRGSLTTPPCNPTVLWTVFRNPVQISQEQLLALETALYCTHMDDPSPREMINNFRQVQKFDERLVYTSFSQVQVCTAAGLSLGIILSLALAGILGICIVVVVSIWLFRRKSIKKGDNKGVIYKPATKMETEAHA
CA2: Carbonic anhydrase 2 (CA2, Homo sapiens, UniProt P00918)
Chain of UniProt P41968 (whole entry, looked up): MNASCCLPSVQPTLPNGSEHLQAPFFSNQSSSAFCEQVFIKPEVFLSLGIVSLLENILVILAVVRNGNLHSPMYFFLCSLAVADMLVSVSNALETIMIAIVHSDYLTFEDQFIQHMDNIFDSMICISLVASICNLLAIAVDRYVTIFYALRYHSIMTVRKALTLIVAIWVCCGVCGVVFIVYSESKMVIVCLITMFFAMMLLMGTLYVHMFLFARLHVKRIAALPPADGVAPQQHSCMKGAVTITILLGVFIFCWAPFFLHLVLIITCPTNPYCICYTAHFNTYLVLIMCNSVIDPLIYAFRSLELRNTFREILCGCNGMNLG
Chain of UniProt Q61143 (whole entry, looked up): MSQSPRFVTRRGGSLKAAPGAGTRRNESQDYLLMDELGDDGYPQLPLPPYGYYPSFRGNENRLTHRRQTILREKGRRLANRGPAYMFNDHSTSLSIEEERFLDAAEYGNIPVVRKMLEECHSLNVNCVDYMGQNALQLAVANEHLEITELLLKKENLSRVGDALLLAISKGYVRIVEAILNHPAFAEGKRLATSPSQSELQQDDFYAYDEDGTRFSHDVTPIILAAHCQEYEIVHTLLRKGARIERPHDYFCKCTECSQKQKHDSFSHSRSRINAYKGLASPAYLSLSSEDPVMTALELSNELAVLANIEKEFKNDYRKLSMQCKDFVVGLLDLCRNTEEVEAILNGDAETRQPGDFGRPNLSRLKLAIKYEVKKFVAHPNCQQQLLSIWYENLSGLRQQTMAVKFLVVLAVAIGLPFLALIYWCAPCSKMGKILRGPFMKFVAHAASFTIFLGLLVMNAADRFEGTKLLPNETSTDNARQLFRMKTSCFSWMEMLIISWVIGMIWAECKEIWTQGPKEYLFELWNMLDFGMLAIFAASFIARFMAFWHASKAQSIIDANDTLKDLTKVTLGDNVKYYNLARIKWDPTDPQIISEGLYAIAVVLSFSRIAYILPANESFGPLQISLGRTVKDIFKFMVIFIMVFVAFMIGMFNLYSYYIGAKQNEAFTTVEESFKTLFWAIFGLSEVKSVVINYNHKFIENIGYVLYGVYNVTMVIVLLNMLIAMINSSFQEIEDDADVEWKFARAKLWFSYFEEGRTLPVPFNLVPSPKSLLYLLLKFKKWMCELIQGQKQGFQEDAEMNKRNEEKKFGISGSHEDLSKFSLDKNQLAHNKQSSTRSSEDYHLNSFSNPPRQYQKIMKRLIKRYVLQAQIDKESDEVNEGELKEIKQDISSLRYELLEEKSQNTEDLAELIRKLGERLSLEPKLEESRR
Chain of UniProt P11229 (whole entry, looked up): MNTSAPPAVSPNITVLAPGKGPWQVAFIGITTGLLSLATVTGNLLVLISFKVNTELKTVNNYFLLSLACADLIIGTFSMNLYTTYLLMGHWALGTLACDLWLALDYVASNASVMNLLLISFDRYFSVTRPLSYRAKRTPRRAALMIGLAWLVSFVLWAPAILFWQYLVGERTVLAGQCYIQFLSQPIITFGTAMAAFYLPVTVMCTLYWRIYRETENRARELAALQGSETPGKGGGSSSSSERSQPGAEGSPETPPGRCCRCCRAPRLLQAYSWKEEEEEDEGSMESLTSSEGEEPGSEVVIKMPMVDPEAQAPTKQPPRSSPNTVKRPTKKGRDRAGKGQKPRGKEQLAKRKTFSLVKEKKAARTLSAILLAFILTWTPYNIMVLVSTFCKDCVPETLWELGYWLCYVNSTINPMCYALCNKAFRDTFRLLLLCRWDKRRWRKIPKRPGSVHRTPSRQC
Chain of UniProt Q6W5P4 (whole entry, unmodified, looked up): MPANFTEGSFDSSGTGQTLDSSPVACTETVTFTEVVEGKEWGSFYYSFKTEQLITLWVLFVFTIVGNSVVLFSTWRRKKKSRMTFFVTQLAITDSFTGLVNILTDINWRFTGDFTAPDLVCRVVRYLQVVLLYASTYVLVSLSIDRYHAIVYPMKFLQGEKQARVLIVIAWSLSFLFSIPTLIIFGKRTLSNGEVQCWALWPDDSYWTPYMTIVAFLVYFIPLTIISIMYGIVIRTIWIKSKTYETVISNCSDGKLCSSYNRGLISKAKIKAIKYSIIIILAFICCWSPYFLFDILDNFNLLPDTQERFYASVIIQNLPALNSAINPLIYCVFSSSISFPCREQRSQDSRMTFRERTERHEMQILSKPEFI

Cn1ccc(-c2ccc(Cc3cc(C(=O)NC4CCOCC4)nc4c3ccn4C)cn2)n1 — EC50 (Muscarinic acetylcholine receptor M1 (CHRM1, Homo sapiens, UniProt P11229); agonist): > 10000 nM
Nc1c2ncn3c2nc[n+]1[C@@H]1O[C@H](COP(=O)(O)OP(=O)([O-])OC[C@@H]2C[C@@H](O)[C@H]3O2)[C@@H](O)[C@H]1O — EC50 (cADPR receptor, sea urchin; Ca2+ release, agonist; sea urchin egg homogenate): 5000 nM
CCOC(=O)N1CCC(c2cc(O)n3nc(C)c(-c4ccc(C(F)(F)F)cc4)c3n2)CC1 — EC50 (Short transient receptor potential channel 6 (Trpc6, Mus musculus, UniProt Q61143)): ~1380 nM
C=CC(=O)N1CCC[C@@H](n2nc(-c3cccc4ccccc34)c3c(N)ncnc32)C1 — kinact (Epidermal growth factor receptor (EGFR, Homo sapiens, UniProt P00533, L858R)): 0.25 ± 0.06 min⁻¹
COc1ccc2nc3cc(Cl)ccc3c(NCCCCNc3nc(N)nc(N)n3)c2c1 — Kd (RNA repeat r(CAG)2; binding): > 300000 nM
NS(=O)(=O)c1c(F)c(F)cc(F)c1N[C@H]1CCCc2ccccc21 — Kd (CA12; fluorescent thermal shift; pH 7.0, 37 °C, observed): 10000 nM
Nc1c2ccn3c2nc[n+]1[C@@H]1O[C@H](COP(=O)(O)OP(=O)([O-])OC[C@H]2O[C@@H]3[C@H](O)[C@@H]2O)[C@@H](O)[C@H]1O — EC50 (cADPR receptor, sea urchin; Ca2+ release, agonist; sea urchin egg homogenate): 90 nM
NS(=O)(=O)c1c(F)c(F)cc(F)c1NC1CCCCCCC1 — Kd (CA2; thermal shift; pH 7.0, 37 °C): 230 nM
Nc1c2ncn3c2nc[n+]1[C@@H]1O[C@H](COP(=O)(O)OP(=O)([O-])OC[C@H]2O[C@@H]3C[C@@H]2O)[C@@H](O)[C@H]1O — EC50 (cADPR receptor, sea urchin; Ca2+ release, agonist; sea urchin egg homogenate): 58 nM
CCC1=C(O)c2c(oc(-c3cccc4ccccc34)cc2=O)C(CC)(CC)C1=O — IC50 (MCF7; cell growth, SRB): 1550 nM
CCCC[C@H](NC(=O)[C@@H](NC(=O)[C@@H](N)Cc1ccc(O)cc1)C(C)C)C(=O)NCC(=O)N[C@@H](Cc1c[nH]cn1)C(=O)N[C@H](Cc1ccc2ccccc2c1)C(=O)N[C@@H](CCCN=C(N)N)C(=O)N[C@@H](Cc1c[nH]c2ccccc12)C(=O)N[C@@H](CC(=O)O)C(=O)N[C@@H](CCCN=C(N)N)C(=O)N[C@@H](Cc1ccccc1)C(=O)NCC(N)=O — EC50 (Melanocortin receptor 3 (MC3R, Homo sapiens, UniProt P41968)): > 10000 nM
C=CC(=O)N1CCC[C@@H](n2nc(-c3cn(C)c4ccccc34)c3c(N)ncnc32)C1 — kinact (Epidermal growth factor receptor (EGFR, Homo sapiens, UniProt P00533, L858R/T790M)): 0.29 ± 0.02 min⁻¹
Cc1cc(S(N)(=O)=O)c(Cl)cc1NC1CCCCC1 — Kd (CA2; thermal shift; pH 7.0, 37 °C): 5000 nM
COCCOCCOCCOCCC(=O)NCc1cc(CNC(=O)CCOCCOCCOCCOC)cc(-c2cc3cc4nc(c(OC)c5[nH]c(cc6nc(cc2[nH]3)CC6(C)C)cc5-c2cc(CNC(=O)CCOCCOCCOCCOC)cc(CNC(=O)CCOCCOCCOCCOC)c2)CC4(C)C)c1 — Soret (B) absorption maximum (PBS; room temperature): 358 nm
NS(=O)(=O)c1c(F)c(F)c([S+]([O-])CCO)c(F)c1NC1CCCCCCC1 (stereo not shown) — Kd (CA12; fluorescent thermal shift; pH 7.0, 37 °C, observed): 250 nM
BP(=O)(OP(=O)(O)OP(=O)(O)OC[C@H]1O[C@@H](n2cnc3c(N)ncnc32)[C@H](O)[C@@H]1O)OP(=O)(O)OP(=O)(O)OC[C@H]1O[C@@H](n2cnc3c(N)ncnc32)[C@H](O)[C@@H]1O — EC50 (P2Y1 receptor, rat, GFP-tagged; agonist): 63 nM
N=C(N)NCCC[C@H](NC(=O)[C@H](Cc1ccccc1)NC(=O)[C@@H](N)CO)C(=O)N[C@@H](CC(N)=O)C(=O)NCC(N)=O — EC50 (Neuropeptide S receptor (NPSR1, Homo sapiens, UniProt Q6W5P4, N107I); calcium mobilization, agonist; receptor variant): 515 ± 51.2 nM
CCC1=C(O)c2c(oc(-c3ccc(OC)c4ccccc34)cc2=O)C(CC)(CC)C1=O — IC50 (MCF7; cell growth, SRB): 3590 nM
CN1C(=O)[C@@H](Cc2ccc(O)cc2)NC(=O)CNC(=O)[C@H](Cc2ccc3ccccc3c2)NC(=O)[C@H](CCCNC(=N)N)NC(=O)[C@H]1CCCNC(=O)c1ccc(CNC(=O)CN2CCN(CC(=O)O)CCN(CC(=O)O)CCN(CC(=O)O)CC2)cc1 [gallium-68 labelled] — absorbed dose coefficient (PET dosimetry; human patients, liver): 0.0175 mGy/MBq

A few entries again:
C=CC(=O)N1CCC[C@@H](n2nc(-c3cccc4ccccc34)c3c(N)ncnc32)C1 — kinact (Epidermal growth factor receptor (EGFR, Homo sapiens, UniProt P00533, L858R)): 0.25 ± 0.06 min⁻¹
N=C(N)NCCC[C@H](NC(=O)[C@H](Cc1ccccc1)NC(=O)[C@@H](N)CO)C(=O)N[C@@H](CC(N)=O)C(=O)NCC(N)=O — EC50 (Neuropeptide S receptor (NPSR1, Homo sapiens, UniProt Q6W5P4, N107I); calcium mobilization, agonist; receptor variant): 515 ± 51.2 nM
CCC1=C(O)c2c(oc(-c3cccc4ccccc34)cc2=O)C(CC)(CC)C1=O — IC50 (MCF7; cell growth, SRB): 1550 nM
